Measurements from different studies.
Compare with care: the assays were run in different laboratories. ± gives the spread as reported.
UniProt Q08345, sequence (whole entry, looked up): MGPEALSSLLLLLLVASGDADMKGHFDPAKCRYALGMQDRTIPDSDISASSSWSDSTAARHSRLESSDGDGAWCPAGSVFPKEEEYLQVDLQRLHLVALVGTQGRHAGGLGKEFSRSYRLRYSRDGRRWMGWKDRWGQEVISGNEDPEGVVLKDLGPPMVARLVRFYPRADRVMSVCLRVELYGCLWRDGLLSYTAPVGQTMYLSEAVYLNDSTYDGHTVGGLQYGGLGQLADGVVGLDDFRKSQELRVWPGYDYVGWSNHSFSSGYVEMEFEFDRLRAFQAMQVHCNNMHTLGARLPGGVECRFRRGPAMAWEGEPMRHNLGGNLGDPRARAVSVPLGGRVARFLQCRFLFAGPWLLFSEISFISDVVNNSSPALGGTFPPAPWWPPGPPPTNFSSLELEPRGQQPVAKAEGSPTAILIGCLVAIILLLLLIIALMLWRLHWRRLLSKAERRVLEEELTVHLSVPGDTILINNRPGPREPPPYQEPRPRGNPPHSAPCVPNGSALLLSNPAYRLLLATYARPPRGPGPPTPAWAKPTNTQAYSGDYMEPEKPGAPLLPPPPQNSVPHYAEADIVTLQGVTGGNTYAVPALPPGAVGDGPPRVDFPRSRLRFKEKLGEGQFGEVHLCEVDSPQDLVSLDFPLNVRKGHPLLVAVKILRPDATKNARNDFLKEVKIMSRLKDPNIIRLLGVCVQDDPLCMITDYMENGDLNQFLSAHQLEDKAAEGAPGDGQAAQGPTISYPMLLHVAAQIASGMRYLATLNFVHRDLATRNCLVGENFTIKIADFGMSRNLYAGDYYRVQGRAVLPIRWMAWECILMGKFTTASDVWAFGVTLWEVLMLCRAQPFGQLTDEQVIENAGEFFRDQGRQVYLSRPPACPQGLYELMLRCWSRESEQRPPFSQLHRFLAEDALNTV

Structure (SMILES)	target or system	assay	system	setting	scale	quantity	result
CC[C@H](C)[C@@H]1NC(=O)[C@H](Cc2ccc(-c3ccccc3)cc2)NC(=O)[C@H](CC(C)C)NC(=O)[C@@H]2[C@@H](c3ccccc3)CCN2C(=O)[C@H](NC(=O)[C@@H](CCCNC(=N)N)NC(=O)[C@@H](CCCNC(=N)N)NC(=O)[C@H](CCCCN=[N+]=[N-])NC(C)=O)CSCSC[C@@H](C(=O)N[C@H](CCCNC(=N)N)C(=O)N[C@H](CCCNC(=N)N)C(N)=O)NC(=O)[C@H](C(C)C)NC(=O)[C@@H]2CCCN2C(=O)[C@H](CC(=O)O)NC(=O)[C@H](Cc2ccc(O)cc2)NC(=O)[C@](C)(CO)NC1=O	AsPC-1	LDH release	–	18 h	–	IC50	> 50 µM
COc1cccc2c1C(=O)c1c(O)c3c(c(O)c1C2=O)C[C@@](O)(C(=O)CO)C[C@@H]3O[C@H]1C[C@H](N)[C@H](O)[C@H](C)O1	SKOV3	cell viability, MTS	–	48 h	–	IC50	0.074 ± 0.025 µM
C=CCNC1=C2C[C@@H](C)C[C@H](OC)[C@H](O)[C@@H](C)/C=C(\C)[C@H](OC(N)=O)[C@@H](OC)/C=C\C=C(/C)C(=O)NC(=C(C)C1=O)C2=O	HUVEC	cytotoxicity, MTT	–	–	–	IC50	> 20 µM
Cc1cc(N(CCOS(C)(=O)=O)CCOS(C)(=O)=O)ccc1C(=O)O	A498	cell growth	–	–	–	IC50	23.5 µg/mL
COc1c(C)c2c(c(O)c1C/C=C(\C)CCC(=O)O)C(=O)OC2	786-O	cell proliferation	–	–	–	IC50	0.646 µM
CC(=N)S	THLE-2, 3D culture	MTT	–	96 h	–	IC50	181.8 ± 0.654 µM
C=CCNC1=C2C[C@@H](C)C[C@H](OC)[C@H](O)[C@@H](C)/C=C(\C)[C@H](OC(N)=O)[C@@H](OC)/C=C\C=C(/C)C(=O)NC(=C(c3ccccc3)C1=O)C2=O	HUVEC	cytotoxicity, MTT	–	–	–	IC50	> 20 µM
COc1cc([C@@H]2c3cc4c(cc3[C@@H](O[C@@H]3O[C@@H]5CO[C@@H](C)O[C@H]5[C@H](O)[C@H]3O)[C@H]3COC(=O)[C@H]23)OCO4)cc(OC)c1O	HeLa 14 expressing mutant P-gp	–	–	48 h	–	IC50	2.9 ± 0.5 µM
NCc1cc2c(-c3ccccc3)n[nH]c2c(Nc2ccccc2)n1	SKOV3	cell viability, MTS	–	48 h	–	IC50	4.3 ± 0.3 µM
COc1ccccc1N1CCN(CCN(C(=O)C2CCCCC2)c2ccccn2)CC1	Plasmodium falciparum	–	W2	–	–	IC50	7.94 µM
[Cl-].[Cl-].[Co+2]	HL-7702 normal hepatocytes	cell viability, MTT	–	48 h	–	IC50	> 150 µM
CC(C)c1n[nH]c2c(Nc3ccccc3)nc(CNCc3ccccc3)cc12	SKOV3	cell viability, MTS	–	48 h	–	IC50	2.8 ± 0.4 µM
N.N.[Cl][Pt][Cl]	THLE-2, 3D culture	MTT	–	96 h	–	IC50	4.6 ± 0.21 µM
COc1cc(C(=O)NCCOCCOCCOCCNC(=O)C[C@@H]2N=C(c3ccc(Cl)cc3)c3c(sc(C)c3C)-n3c(C)nnc32)ccc1NC(=O)[C@@H]1N[C@@H](CC(C)(C)C)[C@](C#N)(c2ccc(Cl)cc2F)[C@H]1c1cccc(Cl)c1F	most sensitive cancer line	cell viability, PRISM barcoded screen	–	5 d	–	IC50	0.14 µM
CC[C@H](C)[C@@H]1NC(=O)[C@@H]2CCCN2C(=O)[C@H](CC(C)C)NC(=O)[C@H](CC(C)C)NC(=O)CNC(=O)[C@@H](NC(=O)[C@@H](NC(=O)[C@H](CC(=O)O)NC(=O)CNC(=O)[C@@H](NC(=O)[C@H](C)NC(=O)CNC(=O)[C@H](CCCCN)NC(=O)[C@H](CC(C)C)NC(=O)[C@H](CC(C)C)NC(=O)[C@H](CCCCN)NC(=O)CNC(=O)[C@@H](NC(=O)[C@@H](N)CC(C)C)C(C)C)C(C)C)C(C)C)CSSC[C@@H](C(=O)O)NC1=O	–	RNA-seq, item: Arg2	mouse, traumatic brain injury model, frontal cortex and hippocampus	dose not given	baseline: TBI alone	log2 fold change	-2.61
CC(C)[C@H](NC(=O)[C@H](Cc1c[nH]c2ccccc12)NC(=O)[C@H](Cc1c[nH]cn1)NC(=O)[C@H](CCCNC(=N)N)NC(=O)[C@H](CCCNC(=N)N)NC(=O)[C@H](Cc1c[nH]c2ccccc12)NC(=O)[C@H](Cc1c[nH]c2ccccc12)NC(=O)[C@H](Cc1c[nH]cn1)NC(=O)[C@H](Cc1c[nH]c2ccccc12)NC(=O)[C@H](CCCNC(=N)N)NC(=O)[C@@H](N)CCCCN)C(=O)N[C@H](C(=O)N[C@@H](Cc1c[nH]c2ccccc12)C(N)=O)C(C)C	HUVEC	–	–	–	–	IC50	134 µM
O=C1[O][Pt]2([NH][C@@H]3CCCC[C@H]3[NH]2)[O]C1=O	LoVo resistant to compound	cell viability, MTT	–	72 h	–	IC50	21.9 ± 1.86 µM
C=CCO[C@H]1CCN2C(=O)[C@H](NC(=O)[C@H](CCCNC(=N)N)NC(=O)[C@H](CCCNC(=N)N)NC(C)=O)CSCSC[C@@H](C(=O)N[C@@H](CCCNC(=N)N)C(=O)N[C@@H](CCCNC(=N)N)C(N)=O)NC(=O)[C@H](CCCCC)NC(=O)[C@@H]3CCCN3C(=O)[C@H](CC(=O)O)NC(=O)[C@H](Cc3ccc(O)cc3)NC(=O)[C@H](CO)NC(=O)[C@H]([C@@H](C)CC)NC(=O)[C@H](Cc3ccc(-c4ccccc4)cc3)NC(=O)[C@H](CC(C)C)NC(=O)[C@H]12	AsPC-1	LDH release	–	18 h	–	IC50	> 50 µM
C[C@H]1CN(c2n[nH]c3nc(N[C@H]4CC[C@H](NS(=O)(=O)CCC(F)(F)F)CC4)ncc23)CCO1	DDR1 (Homo sapiens, UniProt Q08345)	inhibitor, Kinobeads competition profiling	–	20 µM	baseline: vehicle	relative abundance	1.08
C=CCO[C@H]1CCN2C(=O)[C@H](NC(=O)[C@H](CCCNC(=N)N)NC(=O)[C@H](CCCNC(=N)N)NC(C)=O)CSCSC[C@@H](C(=O)N[C@@H](CCCNC(=N)N)C(=O)N[C@@H](CCCNC(=N)N)C(N)=O)NC(=O)[C@H](C(C)C)NC(=O)[C@@H]3CCCN3C(=O)[C@H](CC(=O)O)NC(=O)[C@H](Cc3ccc(O)cc3)NC(=O)[C@H](CO)NC(=O)[C@H]([C@@H](C)CC)NC(=O)[C@H](Cc3ccc(-c4ccccc4)cc3)NC(=O)[C@H](CC(C)C)NC(=O)[C@H]12	AsPC-1	LDH release	–	18 h	–	IC50	> 50 µM
Cc1ncsc1-c1ccc([C@H](C)NC(=O)[C@@H]2C[C@@H](O)CN2C(=O)[C@@H](c2cc(N3CCC(CN4CCC(OC5CC(Oc6cc(N7C8CCC7CN(c7cc(-c9ccccc9O)nnc7N)C8)ccn6)C5)CC4)CC3)no2)C(C)C)cc1 (stereo partly shown)	NCI-H522 SMARCA4/SMARCA2-deficient	cell viability, CellTiter-Glo	–	7 days	–	IC50	> 1 µM
CC[C@@H](C)[C@H]1NC(=O)[C@H](Cc2ccc(-c3ccccc3)cc2)NC(=O)[C@H](CC(C)C)NC(=O)[C@@H]2[C@@H](c3ccccc3)CCN2C(=O)[C@H](NC(=O)[C@@H](CCCNC(=N)N)NC(=O)[C@@H](CCCNC(=N)N)NC(C)=O)CSCSC[C@@H](C(=O)N[C@H](CCCNC(=N)N)C(=O)N[C@H](CCCNC(=N)N)C(N)=O)NC(=O)[C@H](C(C)C)NC(=O)[C@@H]2CCCN2C(=O)[C@H](CC(=O)O)NC(=O)[C@H](Cc2ccc(O)cc2)NC(=O)[C@@](C)(CO)NC1=O	AsPC-1	LDH release	–	18 h	–	IC50	> 50 µM
COC(=O)c1ccccc1-c1c2ccc(=N)cc-2oc2cc(N)ccc12	HeLa 14 expressing mutant P-gp	–	–	48 h	–	IC50	2.87 ± 0.3 µM
CN(C)CCC(c1ccccc1)c1ccccn1 (stereo not shown)	Plasmodium falciparum	–	GB4	–	–	IC50	5.01 µM
N.N.[Cl][Pt][Cl]	Jurkat E6-1	cell proliferation, CellTiter-Glo	–	72 h	–	IC50	1.21 µM

A few entries again:
Structure (SMILES)	target or system	assay	system	setting	scale	quantity	result
COc1cc(C(=O)NCCOCCOCCOCCNC(=O)C[C@@H]2N=C(c3ccc(Cl)cc3)c3c(sc(C)c3C)-n3c(C)nnc32)ccc1NC(=O)[C@@H]1N[C@@H](CC(C)(C)C)[C@](C#N)(c2ccc(Cl)cc2F)[C@H]1c1cccc(Cl)c1F	most sensitive cancer line	cell viability, PRISM barcoded screen	–	5 d	–	IC50	0.14 µM
COc1cc([C@@H]2c3cc4c(cc3[C@@H](O[C@@H]3O[C@@H]5CO[C@@H](C)O[C@H]5[C@H](O)[C@H]3O)[C@H]3COC(=O)[C@H]23)OCO4)cc(OC)c1O	HeLa 14 expressing mutant P-gp	–	–	48 h	–	IC50	2.9 ± 0.5 µM
NCc1cc2c(-c3ccccc3)n[nH]c2c(Nc2ccccc2)n1	SKOV3	cell viability, MTS	–	48 h	–	IC50	4.3 ± 0.3 µM
